Experimental data gathered from unrelated publications.
Lines come from different studies, so protocols differ. “And” joins repeats or separate records; there may be more than shown. Numbers after ± are the reported error.
sdiA: Regulatory protein SdiA (sdiA, Escherichia coli, UniProt P07026)
Sequence of UniProt P07026 (whole entry, looked up): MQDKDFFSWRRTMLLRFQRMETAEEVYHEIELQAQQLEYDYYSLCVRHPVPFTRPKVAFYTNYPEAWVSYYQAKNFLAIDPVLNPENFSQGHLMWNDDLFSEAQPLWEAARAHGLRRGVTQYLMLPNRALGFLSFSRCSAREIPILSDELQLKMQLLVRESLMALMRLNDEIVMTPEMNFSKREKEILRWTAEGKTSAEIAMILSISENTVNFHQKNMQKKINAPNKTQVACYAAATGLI
Uncharacterized hydrolase SAUSA300_2518: Uncharacterized hydrolase SAUSA300_2518 (Staphylococcus aureus, UniProt Q2FDS6)
Oprm1: Mu-type opioid receptor (Oprm1, Rattus norvegicus, UniProt P33535)
Sequence of UniProt P33535 (whole entry, looked up): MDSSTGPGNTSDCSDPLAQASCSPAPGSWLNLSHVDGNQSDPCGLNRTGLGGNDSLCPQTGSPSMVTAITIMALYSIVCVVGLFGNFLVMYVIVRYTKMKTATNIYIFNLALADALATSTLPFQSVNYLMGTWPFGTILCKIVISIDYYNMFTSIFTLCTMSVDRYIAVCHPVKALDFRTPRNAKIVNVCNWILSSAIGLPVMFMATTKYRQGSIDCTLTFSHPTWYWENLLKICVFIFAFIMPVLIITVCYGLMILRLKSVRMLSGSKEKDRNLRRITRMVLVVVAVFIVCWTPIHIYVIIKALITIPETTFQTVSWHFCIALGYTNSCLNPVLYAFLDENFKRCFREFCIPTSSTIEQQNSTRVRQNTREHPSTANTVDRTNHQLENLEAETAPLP
KEAP1: Kelch-like ECH-associated protein 1 (KEAP1, Homo sapiens, UniProt Q14145)
Sequence of UniProt Q14145 (whole entry, looked up): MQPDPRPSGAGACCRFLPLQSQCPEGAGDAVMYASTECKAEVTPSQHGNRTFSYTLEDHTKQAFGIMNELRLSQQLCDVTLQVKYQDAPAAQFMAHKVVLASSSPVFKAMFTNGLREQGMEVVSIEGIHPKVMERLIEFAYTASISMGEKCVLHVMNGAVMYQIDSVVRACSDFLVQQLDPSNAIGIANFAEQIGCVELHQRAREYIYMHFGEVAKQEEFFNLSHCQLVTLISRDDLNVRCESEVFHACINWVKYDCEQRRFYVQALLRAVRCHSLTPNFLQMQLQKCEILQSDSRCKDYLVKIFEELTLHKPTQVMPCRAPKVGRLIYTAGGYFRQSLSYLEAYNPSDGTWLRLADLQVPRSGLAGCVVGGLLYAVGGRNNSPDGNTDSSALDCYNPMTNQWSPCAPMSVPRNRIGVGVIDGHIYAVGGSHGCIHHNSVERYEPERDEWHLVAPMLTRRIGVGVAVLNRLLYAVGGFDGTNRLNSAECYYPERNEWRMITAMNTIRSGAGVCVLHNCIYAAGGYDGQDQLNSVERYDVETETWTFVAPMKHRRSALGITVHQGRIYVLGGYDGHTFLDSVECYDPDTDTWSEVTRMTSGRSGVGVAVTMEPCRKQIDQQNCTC
lasR: Transcriptional activator protein LasR (lasR, Pseudomonas aeruginosa, UniProt P25084)
Sequence of UniProt Q9Y2J8 (whole entry, looked up): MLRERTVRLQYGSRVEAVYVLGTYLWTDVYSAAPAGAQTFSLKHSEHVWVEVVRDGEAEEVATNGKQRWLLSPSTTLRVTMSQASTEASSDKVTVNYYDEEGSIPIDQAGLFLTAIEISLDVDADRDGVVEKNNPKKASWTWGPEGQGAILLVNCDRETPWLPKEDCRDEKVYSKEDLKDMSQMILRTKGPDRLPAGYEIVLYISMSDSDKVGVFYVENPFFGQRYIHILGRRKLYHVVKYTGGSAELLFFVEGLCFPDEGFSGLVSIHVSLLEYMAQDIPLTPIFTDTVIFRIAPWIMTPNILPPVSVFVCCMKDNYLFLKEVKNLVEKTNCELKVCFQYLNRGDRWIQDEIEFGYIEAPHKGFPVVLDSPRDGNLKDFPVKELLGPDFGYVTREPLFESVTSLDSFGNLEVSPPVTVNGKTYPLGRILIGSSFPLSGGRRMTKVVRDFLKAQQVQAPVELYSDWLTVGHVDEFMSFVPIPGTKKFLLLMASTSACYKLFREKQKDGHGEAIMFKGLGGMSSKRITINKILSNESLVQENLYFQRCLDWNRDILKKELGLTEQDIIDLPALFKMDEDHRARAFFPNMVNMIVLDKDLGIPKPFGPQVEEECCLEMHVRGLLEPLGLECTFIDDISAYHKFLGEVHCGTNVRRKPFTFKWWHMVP
Sequence of UniProt Q16566 (whole entry, looked up): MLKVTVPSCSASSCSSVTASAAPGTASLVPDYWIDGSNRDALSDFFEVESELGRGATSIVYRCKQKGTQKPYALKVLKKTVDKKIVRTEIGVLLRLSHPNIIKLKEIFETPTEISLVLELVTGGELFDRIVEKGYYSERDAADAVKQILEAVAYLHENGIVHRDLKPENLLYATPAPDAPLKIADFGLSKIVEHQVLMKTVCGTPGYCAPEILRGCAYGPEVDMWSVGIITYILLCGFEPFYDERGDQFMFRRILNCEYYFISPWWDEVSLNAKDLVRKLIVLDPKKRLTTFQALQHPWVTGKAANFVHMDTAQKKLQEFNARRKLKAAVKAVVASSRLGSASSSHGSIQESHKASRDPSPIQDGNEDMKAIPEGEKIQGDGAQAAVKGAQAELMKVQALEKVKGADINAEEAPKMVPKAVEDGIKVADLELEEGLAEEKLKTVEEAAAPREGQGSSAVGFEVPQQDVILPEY
Sequence of UniProt O60674 (whole entry, looked up): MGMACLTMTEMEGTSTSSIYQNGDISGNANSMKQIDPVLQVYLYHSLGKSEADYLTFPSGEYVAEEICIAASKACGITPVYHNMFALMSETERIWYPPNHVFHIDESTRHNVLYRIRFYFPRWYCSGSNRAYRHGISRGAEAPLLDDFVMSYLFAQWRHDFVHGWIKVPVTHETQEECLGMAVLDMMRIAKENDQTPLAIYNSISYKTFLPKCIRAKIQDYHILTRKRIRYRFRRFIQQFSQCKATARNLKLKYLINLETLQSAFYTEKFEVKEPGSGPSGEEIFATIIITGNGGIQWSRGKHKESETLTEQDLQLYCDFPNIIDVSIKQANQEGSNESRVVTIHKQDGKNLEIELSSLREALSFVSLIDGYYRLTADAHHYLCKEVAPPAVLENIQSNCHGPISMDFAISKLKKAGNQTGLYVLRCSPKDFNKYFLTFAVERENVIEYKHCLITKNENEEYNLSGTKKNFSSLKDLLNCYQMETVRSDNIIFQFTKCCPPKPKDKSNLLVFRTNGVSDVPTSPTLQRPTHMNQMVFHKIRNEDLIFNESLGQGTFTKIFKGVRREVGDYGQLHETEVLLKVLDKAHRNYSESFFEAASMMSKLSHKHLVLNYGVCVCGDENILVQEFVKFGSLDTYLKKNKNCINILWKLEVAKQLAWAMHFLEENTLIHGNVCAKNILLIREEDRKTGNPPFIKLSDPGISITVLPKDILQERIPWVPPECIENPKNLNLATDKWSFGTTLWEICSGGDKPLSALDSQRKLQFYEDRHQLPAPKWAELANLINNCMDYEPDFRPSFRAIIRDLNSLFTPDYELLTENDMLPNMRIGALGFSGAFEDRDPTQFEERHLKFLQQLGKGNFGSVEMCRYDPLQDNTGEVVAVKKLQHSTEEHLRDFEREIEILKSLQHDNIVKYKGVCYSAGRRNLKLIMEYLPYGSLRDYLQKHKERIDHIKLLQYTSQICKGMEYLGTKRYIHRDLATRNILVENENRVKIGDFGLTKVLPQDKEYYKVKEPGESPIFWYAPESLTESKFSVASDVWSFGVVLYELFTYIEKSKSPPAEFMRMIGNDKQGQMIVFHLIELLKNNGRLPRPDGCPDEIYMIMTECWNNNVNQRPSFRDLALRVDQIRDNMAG
Sequence of UniProt P50395 (whole entry, looked up): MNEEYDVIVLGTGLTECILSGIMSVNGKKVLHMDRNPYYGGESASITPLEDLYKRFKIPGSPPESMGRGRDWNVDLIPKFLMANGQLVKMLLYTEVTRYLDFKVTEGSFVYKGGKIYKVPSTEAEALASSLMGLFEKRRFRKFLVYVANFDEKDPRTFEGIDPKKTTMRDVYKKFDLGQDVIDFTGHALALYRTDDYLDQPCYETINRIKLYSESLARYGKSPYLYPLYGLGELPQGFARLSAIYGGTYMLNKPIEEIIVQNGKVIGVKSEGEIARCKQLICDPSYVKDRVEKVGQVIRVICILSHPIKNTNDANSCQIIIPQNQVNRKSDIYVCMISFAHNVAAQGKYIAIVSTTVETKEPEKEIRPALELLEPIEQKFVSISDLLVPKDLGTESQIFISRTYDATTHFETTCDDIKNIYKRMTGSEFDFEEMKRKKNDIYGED
Sequence of UniProt Q9H093 (whole entry, looked up): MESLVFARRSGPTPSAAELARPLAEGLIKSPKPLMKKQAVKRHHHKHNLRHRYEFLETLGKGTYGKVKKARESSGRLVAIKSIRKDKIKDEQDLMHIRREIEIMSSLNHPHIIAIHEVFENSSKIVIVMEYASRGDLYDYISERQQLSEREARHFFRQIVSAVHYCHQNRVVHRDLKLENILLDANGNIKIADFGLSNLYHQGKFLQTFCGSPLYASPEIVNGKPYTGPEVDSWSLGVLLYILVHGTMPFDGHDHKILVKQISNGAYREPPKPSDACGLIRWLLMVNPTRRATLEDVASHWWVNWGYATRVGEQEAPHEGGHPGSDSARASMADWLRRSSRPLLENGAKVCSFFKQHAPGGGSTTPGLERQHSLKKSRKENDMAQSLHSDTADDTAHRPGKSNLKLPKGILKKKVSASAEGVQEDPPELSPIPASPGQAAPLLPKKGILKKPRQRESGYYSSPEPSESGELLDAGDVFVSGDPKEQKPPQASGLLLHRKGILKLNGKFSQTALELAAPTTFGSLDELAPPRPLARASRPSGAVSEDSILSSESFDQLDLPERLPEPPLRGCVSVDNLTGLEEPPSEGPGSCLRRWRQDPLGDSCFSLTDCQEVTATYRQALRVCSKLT
Sequence of UniProt Q96GD4 (whole entry, looked up): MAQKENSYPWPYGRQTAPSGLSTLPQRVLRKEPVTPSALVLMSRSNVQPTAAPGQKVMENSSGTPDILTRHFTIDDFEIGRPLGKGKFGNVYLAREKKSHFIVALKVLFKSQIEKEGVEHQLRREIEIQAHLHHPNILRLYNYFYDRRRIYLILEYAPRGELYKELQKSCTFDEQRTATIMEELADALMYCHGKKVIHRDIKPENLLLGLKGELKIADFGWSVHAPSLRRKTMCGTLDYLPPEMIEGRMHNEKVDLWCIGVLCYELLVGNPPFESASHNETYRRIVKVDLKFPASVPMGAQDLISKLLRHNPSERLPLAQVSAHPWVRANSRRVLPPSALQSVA

Compound	tested on	test	test system	setting	how to read	endpoint	result
O=C1NC2(CC2)COc2ncc(F)cc2[C@H]2COCCN2c2ccn3ncc1c3n2	–	–	Sprague-Dawley rat, female, serum	oral, 20 mg/kg/day, end of recovery, 4-week subacute toxicity	–	serum triglycerides	0.4 ± 0.1 mmol/L
Cc1nc2cccc(OCC(C)(C)C(=O)NC(C)C)c2c(N)c1C(=O)[O-].[Na+]	Salmonella typhimurium	–	TA100	0.13 mg per plate, with S9, preincubation	–	revertant colonies per plate	114 ± 13
O=C1NC(=O)c2c1c1cc(F)c[n+]3c1c1c2c2cc(O)ccc2[n]1[Ru-4]312([N]=C=S)[S+]3CC[S+]1CC[S+]2CC3 (stereo not shown)	CAMK4 (Homo sapiens, UniProt Q16566)	enzyme activity	–	100 nM, human enzyme, with: 10 µM ATP	relative to: untreated	remaining activity	11%
CN(C)CCCSC(=S)N1CCN(C(=O)/C=C/c2coc3ccccc3c2=O)CC1	Nucleoprotein (N, Tomato spotted wilt virus, UniProt P25999, R94A)	binding, microscale thermophoresis	–	1.953 µM	dose series	MST response	842 a.u.
O=C(N1CCCCC1)n1ccnn1	Cytosolic acyl coenzyme A thioester hydrolase (Acot7, Mus musculus, UniProt Q91V12)	enzyme activity, inhibitor, competitive ABPP-SILAC, refers to: Acot7	mouse T-cells	concentration not given, 4 h, treated in situ	relative to: DMSO	activity ratio	1.55
CCOC(=O)[C@@H]1Cc2c(cc([N+](=O)[O-])cc2[N+](=O)[O-])[C@H](O)[C@]12C(=O)Nc1ccc(Br)cc12	ZAP70 (Homo sapiens, UniProt P43403)	binding, competition with immobilised ligand	–	0.1 µM	–	remaining binding	74%
CN(C)[C@H]1C[C@@]23CC[C@@]4(O2)C(=CC[C@]2(C)[C@@H](c5ccc6ccncc6c5)CC[C@H]24)C=C3[C@@H](O)[C@@H]1O	BTK (Homo sapiens, UniProt Q06187)	ATP probe labelling, inhibitor, KiNativ profiling	–	1 µM	–	inhibition	-8.3%
Cc1cc(C)cc(COc2cc3c(cc2OCc2cc(C)cc(C)c2)C2CC(O)(Cc4cn(CCOCCOCCOCCNc5ccc6c(c5)C(=O)N(C5CCC(=O)NC5=O)C6=O)nn4)CC(C)N2CC3)c1 (racemic)	Rab GDP dissociation inhibitor beta (Homo sapiens, UniProt P50395)	degrader, Western blot	PC-3	2 µM, 24 h	–	degradation	8%
COc1ccc(CC(=O)N[C@H]2CCSC2=O)cc1	sdiA	–	–	–	–	Emax	109%
CSCC[C@@H]1NC(=O)[C@H](Cc2ccccc2)NC(=O)[C@@H](NC(=O)[C@H](C)N)CNC(=O)[C@H](C(C)C)NC(=O)[C@H](Cc2ccccc2)NC1=O	Histidine kinase AgrC (Listeria monocytogenes, UniProt A8E0G3)	reporter gene, agonist, agr GFP reporter	–	–	relative to: native 6-mer AIP	EC50 ratio	10 fold
Nc1ccc(/C=C/C(=O)N2CCc3c(oc4c(-c5ccc(F)cc5)cc(-c5ccc(C(=O)N6CCC(F)(F)CC6)cn5)cc34)C2)cn1	NUAK2 (Homo sapiens, UniProt Q9H093)	binding, competition with immobilised ligand	–	1 µM	–	remaining binding	92%
COc1cc2c(cc1S(=O)(=O)F)C(=O)NCCC2	Uncharacterized hydrolase SAUSA300_2518	enzyme activity, inhibitor, fluorogenic substrate	–	0.01 µM	–	remaining activity	96.6% and 94.6% and 100%
C[C@@H](O)[C@@H]1CN([C@H](Cc2ccc3ccccc3c2)CN2CCC[C@H]2CN2CCNC[C@@H]2CO)CCN1CCc1ccc(Cl)c(Cl)c1	Oprm1	radioligand binding	rat brain membranes	500 nM, pH 7.5, 25 °C, with: 0.87 nM [3H]DAMGO	–	remaining binding	110 ± 8.82%
CC(C)C[C@@H]1NC(=O)[C@H](C(C)C)NC(=O)[C@H](CCC(=O)O)NC(=O)CNC(=O)[C@H]([C@@H](C)O)NC(=O)[C@H](CCC(=O)O)NC(=O)[C@H](CCC(=O)O)NC(=O)[C@H](CC(=O)O)NC(=O)[C@H](C(C)C)NC(=O)[C@H]([C@@H](C)O)NC(=O)CNC(=O)[C@H](CC(=O)O)NC(=O)[C@@H]2CCCN2C1=O	KEAP1	Keap1-Nrf2 binding, inhibitor, competitive FP	–	1.562 µM, 30 min, with: Nrf2 peptide probe	lower = stronger inhibition	fluorescence polarization	0.048 a.u. and 0.198 a.u.
CC[C@H](C)[C@H](NC(=O)[C@H](CO)NC(=O)[C@H](Cc1ccc(O)cc1)NC(=O)[C@H](Cc1ccc(O)cc1)NC(=O)[C@H](CC(N)=O)NC(=O)CNC(=O)[C@H](CO)NC(=O)[C@H](Cc1ccc(O)cc1)NC(=O)[C@H](CO)NC(=O)[C@H](CO)NC(=O)[C@H](CC(N)=O)NC(=O)COCCOCCNC(=O)CN1CCN(CC(=O)O)CCN(CC(=O)O)CCN(CC(=O)O)CC1)C(=O)N[C@@H](CC(C)C)C(N)=O [copper-64 labelled]	–	dynamic PET	mouse, tamoxifen-induced PDAC, tumor	intravenous, 0.1 µg/mouse, 12.5 min	–	tumour uptake	10.5 %ID/mL
CC(C)[C@H]1NC(=O)C[C@H]2/C=C/CCSSC[C@@H](NC1=O)C(=O)N[C@H](Cc1cccc3ccccc13)C(=O)NCC(=O)O2	Aurora kinase B (AURKB, Homo sapiens, UniProt Q96GD4)	enzyme activity, inhibitor	–	10 µM	–	inhibition	-4.8%
CC(C)CC(O)(CC(C)C)c1cn(C(=O)N2CCCC2)nn1	Acyl-protein thioesterase 2 (Mus musculus, UniProt Q9WTL7)	probe labelling, inhibitor, competitive ABPP-SILAC, refers to: Lypla2	mouse T cells	concentration not given, 4 h, in situ, protein level	relative to: treated over DMSO, lower = more inhibition	SILAC ratio	1.32
CCCCCCCCCC(=O)CC(=O)Nc1ccccc1O	lasR	reporter gene, agonist	Escherichia coli JLD271	10 µM, pSC11 and pJN105L plasmids	relative to: OdDHL at same concentration	agonist activity	86%
CC(C)[C@@H]1NC(=O)[C@H](CCC(=O)O)NC(=O)CNC(=O)[C@H]([C@@H](C)O)NC(=O)[C@H](CCC(=O)O)NC(=O)[C@H](CCC(=O)O)NC(=O)[C@H](CC(=O)O)NC(=O)[C@H](C(C)C)NC(=O)[C@H]([C@@H](C)O)NC(=O)CNC(=O)[C@H](CC(=O)O)NC(=O)[C@H](CC(N)=O)NC(=O)[C@H](Cc2ccc(O)cc2)NC1=O	KEAP1	Keap1-Nrf2 binding, inhibitor, competitive FP	–	0.0015 µM, 30 min, with: Nrf2 peptide probe	lower = stronger inhibition	fluorescence polarization	0.99 a.u. and 1 a.u.

Compound	tested on	test	test system	setting	how to read	endpoint	result
CCCC(=O)CC(=O)N[C@H]1CCOC1=O	lasR	reporter gene, agonist	Pseudomonas aeruginosa PAO-JP2	100 µM, plasI-LVAgfp reporter	relative to: OdDHL at same concentration	agonist activity	4%
C[C@@H](O)[C@@H]1CN([C@H](Cc2ccc3ccccc3c2)CN2CCC[C@H]2CN2CCNC[C@@H]2Cc2ccc3ccccc3c2)CCN1CCCC1CCCC1	Oprm1	radioligand binding	rat brain membranes	500 nM, pH 7.5, 25 °C, with: 0.87 nM [3H]DAMGO	–	remaining binding	95.9 ± 7.14%
Cc1ccc(OS(=O)(=O)F)c(C(=O)Nc2ccncc2)c1	Uncharacterized hydrolase SAUSA300_2518	enzyme activity, inhibitor, fluorogenic substrate	–	1 µM	–	remaining activity	74.8% and 69.1% and 68.4%
N=C(N)NCCC[C@@H]1NC(=O)[C@H](CCCCNC(=O)CCC(NC(=S)Nc2ccc(CC3CN(CC(=O)O)CCN(CC(=O)O)CCN(CC(=O)O)CCN3CC(=O)O)cc2)C(=O)NCCCC[C@@H]2NC(=O)[C@@H](Cc3ccc(O)cc3)NC(=O)[C@H](CC(=O)O)NC(=O)CNC(=O)[C@H](CCCNC(=N)N)NC2=O)NC(=O)[C@@H](Cc2ccc(O)cc2)NC(=O)[C@H](CC(=O)O)NC(=O)CNC1=O (stereo partly shown) [scandium-44 labelled]	–	ex vivo γ-counting	female athymic nude mice, U-87 MG xenograft, brain	intravenous, 4 h, with: cRGD 50 mg/kg blocking	–	tissue uptake	0.008 ± 0.002 %ID/g
C[C@H](NCc1ccc(-c2ccc(C(F)(F)F)cc2)cc1)C(N)=O	AMPA receptor, rat	binding, radioligand binding	biochemical	1 µM, with: [3H]AMPA 5.0 nM	–	inhibition	2%
CN(/N=C/c1ccccc1C(=O)O)c1nc(-c2ccccc2Cl)cs1	JAK2 (Homo sapiens, UniProt O60674)	kinase activity	–	1 µM	–	inhibition	0.1%
C=CC(=O)NC[C@H](NC(=O)[C@H](CC1CCCCC1)NC(=O)[C@H](CCC(N)=O)NC(C)=O)C(=O)N[C@@H](CC(C)C)C(=O)N[C@@H](Cc1ccccc1)C(=O)O	Beta sliding clamp (Escherichia coli, UniProt P0A988)	binding, isothermal titration calorimetry	–	37 °C	–	ΔG	-9.04 kcal/mol
CS(C)(=O)=Nc1ccc(-c2ccc(-c3nc4cc(O[C@@H]5CO[C@H]6[C@@H]5OC[C@H]6O)[nH]c4cc3F)cc2)cc1	EPHA1 (Homo sapiens, UniProt P21709)	enzyme activity, inhibitor	–	10 µM	–	inhibition	-4%
CCCCCC(=O)CC(=O)N[C@H]1CCOC1=O	lasR	reporter gene, agonist	Pseudomonas aeruginosa PAO-JP2	100 µM, plasI-LVAgfp reporter	relative to: OdDHL at same concentration	agonist activity	21%
CCCC[C@H]1CNCCN1C[C@@H]1CCCN1C[C@H](CC1CCCCC1)N1CCN(CCc2ccc(Cl)c(Cl)c2)[C@H]([C@H](C)CC)C1	Oprm1	radioligand binding	rat brain membranes	500 nM, pH 7.5, 25 °C, with: 0.87 nM [3H]DAMGO	–	remaining binding	105 ± 6.43%
O=C(Cc1ccccc1Cl)N[C@H]1CCOC1=O	sdiA	–	–	–	–	Emax	104%
N[C@H](C(=O)N1CCCC1)C1CCN(c2nccc3c(-c4ncc(Cl)cc4Cl)cccc23)CC1	PADI2 (Homo sapiens, UniProt Q9Y2J8)	enzyme activity	–	0.006291 µM, low-affinity site, with: Ca2+ 0.25 mM	–	kcat	1.26 s⁻¹ and 1.23 s⁻¹
Cc1cc(C(=O)Nc2nc3cccc(C)c3n2[C@H]2CCCCN(C(=O)/C=C/CN(C)C)C2)ccn1	Trypanosoma brucei	–	STIB795, mouse acute HAT model	oral, 7.5 mg/kg once daily for 4 days, day 6	relative to: mice	survival	66.7%
C#CCCCCOc1ccc2c(c1)CCCN2C(=O)CCl	NCEH1 (Homo sapiens, UniProt Q6PIU2)	mass spectrometry profiling	H460 cell lysate	100 µM over 10 µM, UniProt Q6PIU2	relative to: high over low concentration	reactivity ratio	0.597
O=C(CCc1ccc(C(F)(F)F)cc1)N[C@H]1CCOC1=O	lasR	reporter gene, agonist	Escherichia coli JLD271	10 µM, pSC11 and pJN105L plasmids	relative to: OdDHL at same concentration	agonist activity	63%
COc1ccccc1-c1n[nH]c2nc(N[C@H]3CC[C@H](NS(=O)(=O)CC(C)C)CC3)ncc12	cdc2-related kinase 12 (Leishmania donovani, UniProt A0A3S7WQK2)	binding, kinobead competition	Leishmania donovani extract	–	–	Hill coefficient	1.18 and 1
O=C(N[C@@H]1c2ccccc2C[C@H]1N1CCCC1)c1ccc(-c2ccnc3[nH]ccc23)nc1	GRK7 (Homo sapiens, UniProt Q8WTQ7)	binding, competition with immobilised ligand	–	3 µM	–	remaining binding	21%
CC(C)(C)C(=O)OCOP(=O)(OCOC(=O)C(C)(C)C)C1CCCN(O)C1=O (stereo not shown)	NCI-H322M	–	–	–	–	log TGI	-5.07 log M

Some of these lines once more:
Compound	tested on	test	test system	setting	how to read	endpoint	result
C#CCCCCOc1ccc2c(c1)CCCN2C(=O)CCl	NCEH1 (Homo sapiens, UniProt Q6PIU2)	mass spectrometry profiling	H460 cell lysate	100 µM over 10 µM, UniProt Q6PIU2	relative to: high over low concentration	reactivity ratio	0.597
O=C(CCc1ccc(C(F)(F)F)cc1)N[C@H]1CCOC1=O	lasR	reporter gene, agonist	Escherichia coli JLD271	10 µM, pSC11 and pJN105L plasmids	relative to: OdDHL at same concentration	agonist activity	63%
